Results collected from several papers.
RPS6KA4 C-terminal kinase domain: Ribosomal protein S6 kinase alpha-4, C-terminal kinase domain (RPS6KA4, Homo sapiens, UniProt O75676)
RPS6KA4 N-terminal kinase domain: Ribosomal protein S6 kinase alpha-4, N-terminal kinase domain (RPS6KA4, Homo sapiens, UniProt O75676)

The remaining binding of `C=CC(=O)N1CCCC(n2c(=O)c3ncccc3n(Cc3ccc(Oc4ccccc4)cc3)c2=O)C1` (stereo not drawn) is reported as 80% (RPS6KA4 C-terminal kinase domain; binding, competition with immobilised ligand; 1 µM).
`Cc1cnc2nc1Nc1cccc(c1)COC/C=C/COCc1cc(ccc1OCCN1CCOCC1)N2` has a remaining binding of 88% (RPS6KA4 N-terminal kinase domain; binding, competition with immobilised ligand; 0.1 µM).
`Nc1ncc2c(n1)-c1c([nH]c3ccc(C4=CCOCC4)cc13)CCC2` gave a remaining binding of 100% (RPS6KA4 N-terminal kinase domain; binding, competition with immobilised ligand; 1 µM).
`COc1cc(Nc2nc(C)cc(-c3cnn4nc(OC)ccc34)n2)cc(C(F)(F)F)c1` gave a remaining binding of 96% (RPS6KA4 N-terminal kinase domain; binding, competition with immobilised ligand; 1 µM).
`CNC1C[S+]2CC[S+]3CC[S+](C1)[Ru-4]321([N]=C=S)[n]2c3ccc(OC)cc3c3c4c(c5cc(F)c[n+]1c5c32)C(=O)NC4=O` (stereo not drawn) gave a remaining binding of 7.2% (RPS6KA4 C-terminal kinase domain; KinomeScan; 0.1 µM; relative to: untreated).
`CC(C)=CC1OC(C)(C)C2C=C3C(=O)C(Cl)=CC(O)C3C3C(O)C4OC4C(=O)C132` (stereo not drawn) has a remaining binding of 64% (RPS6KA4 C-terminal kinase domain; binder, KINOMEscan competition binding; 10 µM; relative to: DMSO control).
For `COc1cc(Nc2nccc(-c3cnn4nc(OC)ccc34)n2)cc(C(F)(F)F)c1`, the remaining binding was 100% (RPS6KA4 N-terminal kinase domain; binding, competition with immobilised ligand; 1 µM).
For `Cc1ccc(-c2c(/C=C(\C#N)C(=O)NC(C)C)n(CCCO)c3ncnc(N)c23)cc1`, the remaining binding was 100% (RPS6KA4 C-terminal kinase domain; binding, competition with immobilised ligand; 1 µM).
`CCN1CCN(Cc2ccc(C(=O)Nc3ccc(C)c(NCc4cnc5[nH]ccc5c4OC)c3)cc2C(F)(F)F)CC1` gave a remaining binding of 78% (RPS6KA4 C-terminal kinase domain; binding, competition with immobilised ligand; 1 µM).
`COc1c(Cl)cccc1Nc1c(-c2ccncc2C#C[C@@]2(C)CCCN2C(=O)/C=C/CN(C)C)[nH]c2c1C(=O)NCC2` has a remaining binding of 91% (RPS6KA4 C-terminal kinase domain; binding, competition with immobilised ligand; 3 µM).
The remaining binding of `CCN1CCN(Cc2ccc(NC(=O)c3ccc(C)c(NC(=O)c4cncc(-c5cccs5)c4)c3)cc2C(F)(F)F)CC1` is reported as 25% (RPS6KA4 N-terminal kinase domain; binding, competition with immobilised ligand; 1 µM).
With `CNC(=O)C1CCN(c2cc(C)c(F)cc2NC(=O)c2ccc(-c3cc(O)ccc3C)c(C)c2)CC1` the remaining binding was 97% (RPS6KA4 N-terminal kinase domain; binding, competition with immobilised ligand; 1 µM).
